{"data": "Assay results pooled from the literature", "note": "Every numbered part comes from another study and shows a few of its results, in no order.", "UniProt Q9Y6M4, sequence (whole entry, looked up)": "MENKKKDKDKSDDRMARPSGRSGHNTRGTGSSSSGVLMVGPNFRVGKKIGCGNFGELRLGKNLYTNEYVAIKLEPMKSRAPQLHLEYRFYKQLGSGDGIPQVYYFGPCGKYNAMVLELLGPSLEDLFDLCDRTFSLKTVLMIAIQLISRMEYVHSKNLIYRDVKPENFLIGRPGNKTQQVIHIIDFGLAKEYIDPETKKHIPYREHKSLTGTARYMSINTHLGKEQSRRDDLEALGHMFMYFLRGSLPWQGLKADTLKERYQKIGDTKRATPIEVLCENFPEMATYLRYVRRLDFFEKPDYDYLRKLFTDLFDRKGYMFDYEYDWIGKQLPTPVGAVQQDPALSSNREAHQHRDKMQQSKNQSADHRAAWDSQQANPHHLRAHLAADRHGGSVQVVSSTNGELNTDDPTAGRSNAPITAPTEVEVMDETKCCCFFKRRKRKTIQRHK", "UniProt Q86UE8, sequence (whole entry, looked up)": "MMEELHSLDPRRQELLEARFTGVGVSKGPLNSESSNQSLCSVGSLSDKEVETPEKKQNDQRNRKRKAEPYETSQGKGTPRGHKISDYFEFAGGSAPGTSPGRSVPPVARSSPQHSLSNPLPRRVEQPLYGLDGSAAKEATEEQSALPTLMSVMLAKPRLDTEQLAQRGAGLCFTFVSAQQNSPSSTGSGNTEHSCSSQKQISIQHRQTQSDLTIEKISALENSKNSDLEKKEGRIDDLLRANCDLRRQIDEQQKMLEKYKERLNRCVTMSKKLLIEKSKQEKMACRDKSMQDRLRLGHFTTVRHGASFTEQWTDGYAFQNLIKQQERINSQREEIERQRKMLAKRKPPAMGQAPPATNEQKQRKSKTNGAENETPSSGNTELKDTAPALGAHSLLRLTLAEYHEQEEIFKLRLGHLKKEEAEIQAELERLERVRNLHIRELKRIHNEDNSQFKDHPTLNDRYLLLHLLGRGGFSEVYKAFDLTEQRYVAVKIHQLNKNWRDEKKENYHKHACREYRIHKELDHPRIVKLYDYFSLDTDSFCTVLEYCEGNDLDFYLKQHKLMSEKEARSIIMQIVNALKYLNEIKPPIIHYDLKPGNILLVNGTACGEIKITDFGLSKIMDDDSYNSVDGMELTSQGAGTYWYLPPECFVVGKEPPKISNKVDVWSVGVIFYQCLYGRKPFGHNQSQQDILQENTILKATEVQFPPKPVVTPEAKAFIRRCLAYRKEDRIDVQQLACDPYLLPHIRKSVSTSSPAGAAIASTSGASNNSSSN", "UniProt Q15569, sequence (whole entry, looked up)": "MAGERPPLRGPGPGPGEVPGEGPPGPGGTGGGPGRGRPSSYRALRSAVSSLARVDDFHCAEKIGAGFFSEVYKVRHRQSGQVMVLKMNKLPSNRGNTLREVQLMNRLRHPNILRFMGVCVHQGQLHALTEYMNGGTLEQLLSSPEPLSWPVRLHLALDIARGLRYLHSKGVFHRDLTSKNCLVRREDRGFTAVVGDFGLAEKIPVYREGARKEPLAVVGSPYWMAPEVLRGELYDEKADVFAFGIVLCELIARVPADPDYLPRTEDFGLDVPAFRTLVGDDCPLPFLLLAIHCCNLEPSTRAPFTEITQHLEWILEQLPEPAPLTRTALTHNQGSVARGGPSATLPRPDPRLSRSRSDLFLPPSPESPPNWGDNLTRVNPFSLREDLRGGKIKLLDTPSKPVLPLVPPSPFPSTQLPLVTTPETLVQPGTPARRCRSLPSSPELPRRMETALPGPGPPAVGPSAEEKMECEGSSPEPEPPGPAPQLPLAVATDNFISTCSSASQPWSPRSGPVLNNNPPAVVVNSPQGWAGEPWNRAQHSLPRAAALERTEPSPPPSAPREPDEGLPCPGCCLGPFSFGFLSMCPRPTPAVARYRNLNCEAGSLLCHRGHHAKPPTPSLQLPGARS", "UniProt P49137, sequence (whole entry, looked up)": "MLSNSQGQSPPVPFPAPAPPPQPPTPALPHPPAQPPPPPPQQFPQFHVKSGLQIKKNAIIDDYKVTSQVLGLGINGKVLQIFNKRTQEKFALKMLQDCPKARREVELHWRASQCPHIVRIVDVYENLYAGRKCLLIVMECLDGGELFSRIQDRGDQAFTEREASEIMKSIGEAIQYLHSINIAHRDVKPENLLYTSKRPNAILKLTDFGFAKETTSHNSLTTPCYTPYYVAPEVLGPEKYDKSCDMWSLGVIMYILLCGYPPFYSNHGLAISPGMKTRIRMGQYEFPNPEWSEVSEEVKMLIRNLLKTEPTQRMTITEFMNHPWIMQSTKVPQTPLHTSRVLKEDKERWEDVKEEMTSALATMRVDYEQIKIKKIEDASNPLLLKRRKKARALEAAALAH", "UniProt Q15349, sequence (whole entry, looked up)": "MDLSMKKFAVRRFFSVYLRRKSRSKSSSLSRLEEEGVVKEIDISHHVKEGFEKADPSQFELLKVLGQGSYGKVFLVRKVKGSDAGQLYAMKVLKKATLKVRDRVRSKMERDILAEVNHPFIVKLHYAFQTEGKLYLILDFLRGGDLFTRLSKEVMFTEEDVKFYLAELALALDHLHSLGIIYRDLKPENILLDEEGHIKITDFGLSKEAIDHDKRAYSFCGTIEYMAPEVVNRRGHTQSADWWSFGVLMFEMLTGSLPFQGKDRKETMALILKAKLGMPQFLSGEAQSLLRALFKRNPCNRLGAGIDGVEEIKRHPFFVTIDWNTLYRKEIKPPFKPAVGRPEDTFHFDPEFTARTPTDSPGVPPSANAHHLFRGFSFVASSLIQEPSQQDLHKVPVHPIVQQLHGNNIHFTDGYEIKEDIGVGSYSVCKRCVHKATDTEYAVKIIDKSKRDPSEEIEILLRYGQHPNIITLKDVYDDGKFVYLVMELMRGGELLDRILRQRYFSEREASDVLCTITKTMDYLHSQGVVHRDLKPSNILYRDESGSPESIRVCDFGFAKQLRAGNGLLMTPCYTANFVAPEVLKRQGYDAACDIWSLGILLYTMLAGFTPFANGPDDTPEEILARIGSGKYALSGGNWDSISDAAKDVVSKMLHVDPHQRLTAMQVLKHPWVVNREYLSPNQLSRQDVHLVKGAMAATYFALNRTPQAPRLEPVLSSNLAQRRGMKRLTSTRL", "UniProt O75385, sequence (whole entry, looked up)": "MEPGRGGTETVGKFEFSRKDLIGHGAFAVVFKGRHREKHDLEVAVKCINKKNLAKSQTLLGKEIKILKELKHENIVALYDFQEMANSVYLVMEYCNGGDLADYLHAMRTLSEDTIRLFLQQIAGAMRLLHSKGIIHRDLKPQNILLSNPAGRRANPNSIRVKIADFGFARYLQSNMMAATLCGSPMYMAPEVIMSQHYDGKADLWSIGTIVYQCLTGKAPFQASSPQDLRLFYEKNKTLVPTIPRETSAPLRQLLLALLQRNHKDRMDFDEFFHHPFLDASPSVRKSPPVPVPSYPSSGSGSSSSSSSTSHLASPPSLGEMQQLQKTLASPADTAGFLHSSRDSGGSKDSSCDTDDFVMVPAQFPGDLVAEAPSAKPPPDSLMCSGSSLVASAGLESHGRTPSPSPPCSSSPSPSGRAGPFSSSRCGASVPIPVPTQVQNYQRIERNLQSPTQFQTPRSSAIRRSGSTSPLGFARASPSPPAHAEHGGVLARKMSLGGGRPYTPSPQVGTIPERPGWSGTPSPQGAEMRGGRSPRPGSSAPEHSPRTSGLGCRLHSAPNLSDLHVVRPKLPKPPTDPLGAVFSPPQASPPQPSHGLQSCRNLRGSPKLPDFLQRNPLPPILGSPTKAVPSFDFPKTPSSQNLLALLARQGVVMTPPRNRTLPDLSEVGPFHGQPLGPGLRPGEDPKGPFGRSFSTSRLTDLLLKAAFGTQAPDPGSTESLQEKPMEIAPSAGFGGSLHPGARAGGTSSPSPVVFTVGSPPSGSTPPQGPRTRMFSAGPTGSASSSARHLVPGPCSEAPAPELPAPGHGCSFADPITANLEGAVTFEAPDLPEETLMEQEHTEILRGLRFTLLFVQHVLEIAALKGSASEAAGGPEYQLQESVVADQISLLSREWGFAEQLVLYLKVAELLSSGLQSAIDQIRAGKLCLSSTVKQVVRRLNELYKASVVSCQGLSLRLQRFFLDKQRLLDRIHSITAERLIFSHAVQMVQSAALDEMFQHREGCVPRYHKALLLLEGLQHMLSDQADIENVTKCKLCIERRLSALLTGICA", "UniProt P10721, sequence (whole entry, unmodified, looked up)": "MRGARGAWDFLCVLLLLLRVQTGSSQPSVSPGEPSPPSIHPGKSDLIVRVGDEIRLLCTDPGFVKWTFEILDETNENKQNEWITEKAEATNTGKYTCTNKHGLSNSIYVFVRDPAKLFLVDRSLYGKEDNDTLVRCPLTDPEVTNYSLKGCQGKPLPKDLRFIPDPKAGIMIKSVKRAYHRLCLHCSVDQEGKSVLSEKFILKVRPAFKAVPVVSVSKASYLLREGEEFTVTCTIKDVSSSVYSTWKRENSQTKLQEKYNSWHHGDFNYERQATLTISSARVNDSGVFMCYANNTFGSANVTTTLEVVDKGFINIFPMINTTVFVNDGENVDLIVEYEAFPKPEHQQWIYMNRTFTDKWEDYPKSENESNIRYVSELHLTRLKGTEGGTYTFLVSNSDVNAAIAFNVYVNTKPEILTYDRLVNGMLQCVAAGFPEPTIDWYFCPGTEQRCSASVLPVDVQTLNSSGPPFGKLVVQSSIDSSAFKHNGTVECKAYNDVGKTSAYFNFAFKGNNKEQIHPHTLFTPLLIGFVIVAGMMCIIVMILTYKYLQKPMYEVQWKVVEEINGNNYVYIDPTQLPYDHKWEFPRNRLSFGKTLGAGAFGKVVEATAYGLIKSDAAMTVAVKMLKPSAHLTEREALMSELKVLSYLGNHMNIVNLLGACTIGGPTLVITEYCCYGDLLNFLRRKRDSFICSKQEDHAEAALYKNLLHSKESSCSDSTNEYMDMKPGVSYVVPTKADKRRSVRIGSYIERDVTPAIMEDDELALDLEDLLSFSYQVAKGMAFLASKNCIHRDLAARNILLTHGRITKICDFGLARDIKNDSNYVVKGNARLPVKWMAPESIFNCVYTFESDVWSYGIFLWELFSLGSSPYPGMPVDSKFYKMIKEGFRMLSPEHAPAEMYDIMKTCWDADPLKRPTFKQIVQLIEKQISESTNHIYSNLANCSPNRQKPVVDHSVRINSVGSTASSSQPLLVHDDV"}
{"data": "Set 1", "SMILES": "CN([C@@H]1CCc2c(CC(=O)O)c3ccccc3n2C1)S(=O)(=O)c1ccc(F)cc1", "effect on": "cell-free assay", "method": "competition with immobilised ligand", "tested at": "1 µM"}
{"target": "KIT (Homo sapiens, UniProt P10721, V559D)", "remaining binding [%]": 100}
{"target": "STK17A (Homo sapiens, UniProt Q9UEE5)", "remaining binding [%]": 100}
{"target": "ULK1 (Homo sapiens, UniProt O75385)", "remaining binding [%]": 96}
{"target": "TLK2 (Homo sapiens, UniProt Q86UE8)", "remaining binding [%]": 100}
{"target": "TESK1 (Homo sapiens, UniProt Q15569)", "remaining binding [%]": 91}
{"data": "Set 2", "Structure (SMILES)": "CO[C@H]1C[C@@H]2CC[C@@H](C)[C@@](O)(O2)C(=O)C(=O)N2CCCC[C@H]2C(=O)O[C@H]([C@H](C)C[C@@H]2CC[C@@H](O)[C@H](OC)C2)CC(=O)[C@H](C)/C=C(\\C)[C@@H](O)[C@@H](OC)C(=O)[C@H](C)C[C@H](C)/C=C/C=C/C=C/1C", "effect on": "enzyme activity", "action": "inhibitor", "tested at": "0.5 µM", "baseline": "control"}
{"target": "ACVR1B (Homo sapiens, UniProt P36896)", "remaining activity": "97.6%"}
{"target": "MAPKAPK2 (Homo sapiens, UniProt P49137)", "remaining activity": "101%"}
{"target": "CSNK1G3 (Homo sapiens, UniProt Q9Y6M4)", "remaining activity": "108%"}
{"target": "TEK (Homo sapiens, UniProt Q02763)", "remaining activity": "97.6%"}
{"target": "RPS6KA2 (Homo sapiens, UniProt Q15349)", "remaining activity": "89.5%"}
{"data": "Set 3", "cell line": "mouse MPNST tumor cells", "method": "high-content nuclear imaging", "item": "cell number", "tested at": "10 µM", "time": "12 h", "notes": "mean of 2 replicates", "baseline": "plate mean", "direction": "higher = more cells"}
{"SMILES": "CCN(CC)CCNC(=O)c1cc(S(C)(=O)=O)ccc1OC", "nuclei count [z-score]": 0.589}
{"SMILES": "Cc1cc(/C(=C/Nc2ccc(Cl)cc2)C(=O)Nc2ccc(Cl)cc2)on1", "nuclei count [z-score]": 1.86}
{"SMILES": "CN(C/C=C/c1ccccc1)Cc1cccc2ccccc12", "nuclei count [z-score]": 1.58}
{"SMILES": "Cc1ccc(S(=O)(=O)c2ccc([N+](=O)[O-])o2)cc1", "nuclei count [z-score]": -4.92}
{"data": "Set 4", "cell line": "A-375", "tested at": "100 µM", "time": "18 h"}
{"Structure (SMILES)": "COc1ccc([C@@H]2Sc3ccccc3N(CCN(C)C)C(=O)[C@@H]2OC(C)=O)cc1", "viability [%]": 90.7}
{"Structure (SMILES)": "N#CC1(c2ccc(NC(=O)c3cccnc3NCc3ccncc3)cc2)CCCC1", "viability [%]": 63.1}
{"Structure (SMILES)": "COCC(=O)Nc1c(I)c(C(=O)NCC(O)CO)c(I)c(C(=O)N(C)CC(O)CO)c1I (mixture of isomers)", "viability [%]": 102}
{"Structure (SMILES)": "O=C(O)C[C@H](O)C[C@H](O)/C=C/c1c(C2CC2)nc2ccccc2c1-c1ccc(F)cc1", "viability [%]": 84.7}
{"note": "Some of these lines once more (set 2):"}
{"target": "MAPKAPK2 (Homo sapiens, UniProt P49137)", "remaining activity": "101%"}
{"target": "RPS6KA2 (Homo sapiens, UniProt Q15349)", "remaining activity": "89.5%"}
{"target": "TEK (Homo sapiens, UniProt Q02763)", "remaining activity": "97.6%"}
